Assay results pooled from the literature.
Each numbered part is a random draw from the data of one study; scales do not carry over between parts.
Chain of UniProt P48730 (whole entry, looked up): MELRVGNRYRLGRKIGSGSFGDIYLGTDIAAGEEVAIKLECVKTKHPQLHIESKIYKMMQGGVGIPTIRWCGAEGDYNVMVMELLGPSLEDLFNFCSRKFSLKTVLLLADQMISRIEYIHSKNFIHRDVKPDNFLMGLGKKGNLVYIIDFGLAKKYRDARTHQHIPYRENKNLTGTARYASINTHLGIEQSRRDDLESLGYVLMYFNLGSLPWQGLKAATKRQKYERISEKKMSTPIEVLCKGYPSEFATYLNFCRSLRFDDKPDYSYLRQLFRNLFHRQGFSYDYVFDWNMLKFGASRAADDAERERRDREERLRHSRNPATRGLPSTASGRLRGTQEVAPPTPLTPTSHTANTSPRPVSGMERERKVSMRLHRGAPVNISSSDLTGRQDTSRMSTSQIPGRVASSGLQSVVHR
Chain of UniProt P15056 (whole entry, unmodified, looked up): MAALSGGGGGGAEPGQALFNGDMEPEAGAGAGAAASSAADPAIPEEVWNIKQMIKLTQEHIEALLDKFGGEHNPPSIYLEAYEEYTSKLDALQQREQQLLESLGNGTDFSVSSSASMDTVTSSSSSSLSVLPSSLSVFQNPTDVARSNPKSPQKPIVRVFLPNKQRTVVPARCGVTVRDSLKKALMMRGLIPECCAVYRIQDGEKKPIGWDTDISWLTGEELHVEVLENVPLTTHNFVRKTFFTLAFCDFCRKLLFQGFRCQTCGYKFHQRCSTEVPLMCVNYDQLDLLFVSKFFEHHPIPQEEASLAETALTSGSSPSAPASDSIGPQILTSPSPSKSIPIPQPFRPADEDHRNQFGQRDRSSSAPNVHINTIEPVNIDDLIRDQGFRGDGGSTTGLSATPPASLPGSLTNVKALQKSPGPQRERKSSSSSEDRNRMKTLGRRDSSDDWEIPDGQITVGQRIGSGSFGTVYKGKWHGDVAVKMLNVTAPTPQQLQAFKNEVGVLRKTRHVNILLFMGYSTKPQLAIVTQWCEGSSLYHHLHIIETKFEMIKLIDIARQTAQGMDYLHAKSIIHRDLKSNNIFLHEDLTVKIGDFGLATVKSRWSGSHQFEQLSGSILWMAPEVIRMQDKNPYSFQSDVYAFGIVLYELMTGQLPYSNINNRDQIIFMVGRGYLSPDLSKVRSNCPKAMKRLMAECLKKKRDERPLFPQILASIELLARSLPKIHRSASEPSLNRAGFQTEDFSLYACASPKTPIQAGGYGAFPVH
Chain of UniProt P11802 (whole entry, looked up): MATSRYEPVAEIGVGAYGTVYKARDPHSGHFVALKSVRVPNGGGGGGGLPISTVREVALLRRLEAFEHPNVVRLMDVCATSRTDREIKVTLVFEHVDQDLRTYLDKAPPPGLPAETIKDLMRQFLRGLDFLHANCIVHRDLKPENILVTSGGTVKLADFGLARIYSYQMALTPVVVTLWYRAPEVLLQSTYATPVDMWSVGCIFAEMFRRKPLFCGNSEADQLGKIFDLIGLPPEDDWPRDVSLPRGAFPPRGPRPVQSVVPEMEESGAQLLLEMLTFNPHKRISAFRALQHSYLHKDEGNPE
Chain of UniProt Q9UBF8 (whole entry, looked up): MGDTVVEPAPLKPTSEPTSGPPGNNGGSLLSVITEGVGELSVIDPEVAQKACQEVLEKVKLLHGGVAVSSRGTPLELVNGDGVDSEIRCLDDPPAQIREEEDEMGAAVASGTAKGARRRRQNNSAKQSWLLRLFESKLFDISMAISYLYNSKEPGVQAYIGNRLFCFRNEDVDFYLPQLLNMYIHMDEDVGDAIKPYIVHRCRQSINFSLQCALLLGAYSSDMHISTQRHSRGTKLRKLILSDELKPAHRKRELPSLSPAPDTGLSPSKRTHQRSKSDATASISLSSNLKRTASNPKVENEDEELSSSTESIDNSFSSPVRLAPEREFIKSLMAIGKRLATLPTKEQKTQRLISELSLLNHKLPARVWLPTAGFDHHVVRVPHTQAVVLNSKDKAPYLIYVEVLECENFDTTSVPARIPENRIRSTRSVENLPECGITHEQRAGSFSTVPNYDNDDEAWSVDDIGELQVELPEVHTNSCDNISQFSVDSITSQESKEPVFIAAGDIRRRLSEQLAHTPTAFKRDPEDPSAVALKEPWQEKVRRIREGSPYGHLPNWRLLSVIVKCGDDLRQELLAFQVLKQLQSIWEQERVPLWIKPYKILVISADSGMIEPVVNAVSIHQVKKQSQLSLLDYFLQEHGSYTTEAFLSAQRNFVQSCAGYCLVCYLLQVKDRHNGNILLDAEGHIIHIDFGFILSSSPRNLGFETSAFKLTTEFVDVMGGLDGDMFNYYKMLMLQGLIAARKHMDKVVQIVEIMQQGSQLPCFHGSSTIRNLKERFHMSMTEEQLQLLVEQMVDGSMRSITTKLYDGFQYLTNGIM
Chain of UniProt Q12852 (whole entry, looked up): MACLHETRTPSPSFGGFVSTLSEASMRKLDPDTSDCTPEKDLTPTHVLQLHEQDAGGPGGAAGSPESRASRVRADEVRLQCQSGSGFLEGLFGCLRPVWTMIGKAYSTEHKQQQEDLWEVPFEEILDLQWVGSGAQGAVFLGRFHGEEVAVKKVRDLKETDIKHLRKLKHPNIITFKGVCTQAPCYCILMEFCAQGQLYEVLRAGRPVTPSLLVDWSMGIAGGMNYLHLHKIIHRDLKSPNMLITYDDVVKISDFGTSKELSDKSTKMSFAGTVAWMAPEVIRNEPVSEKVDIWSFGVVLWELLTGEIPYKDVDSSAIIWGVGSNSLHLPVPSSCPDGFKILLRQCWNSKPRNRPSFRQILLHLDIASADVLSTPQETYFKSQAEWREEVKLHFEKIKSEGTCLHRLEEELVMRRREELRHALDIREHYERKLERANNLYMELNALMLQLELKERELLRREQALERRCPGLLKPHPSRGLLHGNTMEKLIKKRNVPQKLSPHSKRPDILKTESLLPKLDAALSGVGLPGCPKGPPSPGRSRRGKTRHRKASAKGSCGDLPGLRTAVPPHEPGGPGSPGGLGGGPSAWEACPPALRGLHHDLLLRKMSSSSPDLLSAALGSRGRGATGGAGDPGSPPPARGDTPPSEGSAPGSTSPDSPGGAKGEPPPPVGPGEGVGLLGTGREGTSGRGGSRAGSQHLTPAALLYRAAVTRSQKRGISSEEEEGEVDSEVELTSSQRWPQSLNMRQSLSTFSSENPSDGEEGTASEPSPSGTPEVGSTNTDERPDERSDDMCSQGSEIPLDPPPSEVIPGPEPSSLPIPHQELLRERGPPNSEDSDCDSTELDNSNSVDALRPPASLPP
Chain of UniProt P42336 (whole entry, unmodified, looked up): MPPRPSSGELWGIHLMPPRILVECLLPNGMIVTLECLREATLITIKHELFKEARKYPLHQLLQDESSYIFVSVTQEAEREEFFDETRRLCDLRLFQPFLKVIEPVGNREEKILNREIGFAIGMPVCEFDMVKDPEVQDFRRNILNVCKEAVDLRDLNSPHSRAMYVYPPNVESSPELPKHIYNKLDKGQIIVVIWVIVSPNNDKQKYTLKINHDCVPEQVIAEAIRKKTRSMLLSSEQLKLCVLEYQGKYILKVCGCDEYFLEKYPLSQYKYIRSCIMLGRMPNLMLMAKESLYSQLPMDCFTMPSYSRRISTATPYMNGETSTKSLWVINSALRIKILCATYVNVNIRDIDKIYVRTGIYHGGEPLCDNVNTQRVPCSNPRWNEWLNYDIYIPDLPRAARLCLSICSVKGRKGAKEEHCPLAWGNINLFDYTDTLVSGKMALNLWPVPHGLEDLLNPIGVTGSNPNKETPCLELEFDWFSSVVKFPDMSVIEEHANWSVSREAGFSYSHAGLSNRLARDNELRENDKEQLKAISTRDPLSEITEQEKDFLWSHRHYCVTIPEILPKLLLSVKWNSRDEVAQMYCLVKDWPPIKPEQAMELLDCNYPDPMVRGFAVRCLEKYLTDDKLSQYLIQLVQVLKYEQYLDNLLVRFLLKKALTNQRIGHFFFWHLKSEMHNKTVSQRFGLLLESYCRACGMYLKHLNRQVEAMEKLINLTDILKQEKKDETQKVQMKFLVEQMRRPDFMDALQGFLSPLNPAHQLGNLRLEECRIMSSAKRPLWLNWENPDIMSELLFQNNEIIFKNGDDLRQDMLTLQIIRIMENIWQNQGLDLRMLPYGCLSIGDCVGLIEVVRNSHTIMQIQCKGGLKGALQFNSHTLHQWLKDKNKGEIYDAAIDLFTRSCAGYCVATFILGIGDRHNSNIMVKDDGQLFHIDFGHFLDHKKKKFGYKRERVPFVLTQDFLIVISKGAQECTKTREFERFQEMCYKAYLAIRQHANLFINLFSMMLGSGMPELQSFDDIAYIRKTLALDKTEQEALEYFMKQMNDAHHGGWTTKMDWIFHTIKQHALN
Chain of UniProt Q86YV6 (whole entry, looked up): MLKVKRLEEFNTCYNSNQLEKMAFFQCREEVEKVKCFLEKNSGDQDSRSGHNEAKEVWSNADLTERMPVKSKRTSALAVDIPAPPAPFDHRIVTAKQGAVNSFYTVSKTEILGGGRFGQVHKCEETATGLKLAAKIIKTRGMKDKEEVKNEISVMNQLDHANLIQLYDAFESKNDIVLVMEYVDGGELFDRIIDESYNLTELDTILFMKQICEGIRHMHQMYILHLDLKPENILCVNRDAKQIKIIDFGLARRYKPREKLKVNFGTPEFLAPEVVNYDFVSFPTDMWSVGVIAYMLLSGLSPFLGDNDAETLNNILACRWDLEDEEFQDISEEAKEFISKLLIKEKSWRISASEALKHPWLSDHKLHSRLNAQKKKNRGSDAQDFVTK

Set 1
SMILES: C[C@H]1CC[C@H](n2c3cnccc3c3cnc(Nc4ccc5c(n4)CCN(C(=O)CO)C5)nc32)CC1
Observed: cell-free assay
Concentration: 1 µM
Myosin light chain kinase family member 4 (MYLK4, Homo sapiens, UniProt Q86YV6) — remaining signal: 74%.
It gave 99% for remaining signal (Phosphatidylinositol 4,5-bisphosphate 3-kinase catalytic subunit alpha isoform (PIK3CA, Homo sapiens, UniProt P42336, H1047L)).
Mitogen-activated protein kinase kinase kinase 5 (MAP3K5, Homo sapiens, UniProt Q99683) — remaining signal: 100%.
For Mitogen-activated protein kinase kinase kinase 12 (MAP3K12, Homo sapiens, UniProt Q12852): remaining signal read 100%.
The remaining signal was 20% (Casein kinase I isoform delta (CSNK1D, Homo sapiens, UniProt P48730)).

Set 2
SMILES: CC(C)(O)c1cncc(-c2nc3ccc(F)cc3n2C2CC2)c1
Concentration: 1 µM
It gave 77% for remaining binding (cAMP-dependent protein kinase catalytic subunit beta (PRKACB, Homo sapiens, UniProt P22694); cell-free assay, competition with immobilised ligand).
It gave 98% for remaining binding (Serine/threonine-protein kinase B-raf (BRAF, Homo sapiens, UniProt P15056, V600E); cell-free assay, competition with immobilised ligand).
The remaining binding was 100% (Phosphatidylinositol 4-kinase beta (PI4KB, Homo sapiens, UniProt Q9UBF8); cell-free assay, competition with immobilised ligand).
Tyrosine-protein kinase ABL1, phosphorylated (ABL1, Homo sapiens, UniProt P00519, F317I); binding — remaining binding: 100%.
It gave 80% for remaining binding (Tyrosine-protein kinase JAK1, JH2 (JAK1, Homo sapiens, UniProt P23458); cell-free assay, competition with immobilised ligand).
It gave 100% for remaining binding (Cyclin-dependent kinase 4 (CDK4, Homo sapiens, UniProt P11802); cell-free assay, competition with immobilised ligand).

Set 3
Target: Testis-specific serine/threonine-protein kinase 1 (TSSK1B, Homo sapiens, UniProt Q9BXA7)
Chain of UniProt Q9BXA7 (whole entry, looked up): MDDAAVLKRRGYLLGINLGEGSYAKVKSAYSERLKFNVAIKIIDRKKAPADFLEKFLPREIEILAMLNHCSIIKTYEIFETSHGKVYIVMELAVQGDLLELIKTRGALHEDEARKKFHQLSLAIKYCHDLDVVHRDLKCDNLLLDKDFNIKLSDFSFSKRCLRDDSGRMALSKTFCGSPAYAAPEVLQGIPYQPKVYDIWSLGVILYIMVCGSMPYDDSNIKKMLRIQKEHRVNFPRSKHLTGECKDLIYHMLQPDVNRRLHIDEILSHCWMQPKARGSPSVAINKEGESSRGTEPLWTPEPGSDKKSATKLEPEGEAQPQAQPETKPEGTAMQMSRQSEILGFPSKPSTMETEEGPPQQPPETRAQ
Observed: enzyme activity
Action: inhibitor
Concentration: 0.5 µM
Baseline: control
With `O=C1NC(=O)C(c2cn(CCCn3ccnc3)c3ccccc23)=C1Nc1ccccc1` the remaining activity was 102%.
For `OCC(O)CCON=C1C(c2c(O)[nH]c3ccccc23)=Nc2ccccc21` (stereo not drawn), the remaining activity was 76.6%.
With `Cn1sc(=O)n(Cc2ccccc2)c1=O` the remaining activity was 94.4%.
For `Nc1[nH]nc2nc3ccccc3nc12`, the remaining activity was 95.4%.
The remaining activity of `CCOC(=O)c1c(C)[nH]c(/C=C2\C(=O)Nc3ccccc32)c1C` is reported as 91.2%.
For `N#CC(C#N)=C(N)/C(C#N)=C/c1ccc(O)cc1`, the remaining activity was 111%.
The remaining activity of `COc1ccc(C(=O)Nc2sc3c(c2C(N)=O)CCCC3)cc1OC` is reported as 115%.
The remaining activity of `COc1cc2nccc(Oc3ccc(NC(=S)NC(=O)c4ccccc4C)cc3)c2cc1OC` is reported as 83.6%.
With `O=C(Nc1cccc(Nc2cc(Nc3cccc(C(F)(F)F)c3)ncn2)c1)C1CC1` the remaining activity was 104%.
For `COc1cc2ncnc(Nc3ccc(F)c(Cl)c3)c2cc1OCCCN1CCOCC1`, the remaining activity was 90%.
The remaining activity of `COc1cc2ncnc(Nc3ccc(Oc4ccccc4)cc3)c2cc1OC` is reported as 104%.
`CN(C)c1ccc(C=C2C(=O)Nc3ccccc32)cc1` has a remaining activity of 102%.
`O=c1c2ccccc2[nH]c(=S)n1CCN1CCC(=C(c2ccc(F)cc2)c2ccc(F)cc2)CC1` gave a remaining activity of 106%.
With `O=S(=O)(c1cccc2cnccc12)N1CCCNCC1` the remaining activity was 93.5%.
The remaining activity of `Nc1ccc2ncnc(NCCc3ccc(Oc4ccccc4)cc3)c2c1` is reported as 100%.

Set 4
Cell line: A-375
Concentration: 100 µM
Time: 18 h
With `NC(=O)N1c2ccccc2C=Cc2ccccc21` the viability was 82.8%.
`CC(C)C[C@H](NC(=O)CNC(=O)c1cc(Cl)ccc1Cl)B(O)O` has a viability of 24.9%.
For `O=C(Nc1cccc2c(=O)cc(-c3nnn[nH]3)oc12)c1ccc(OCCCCc2ccccc2)cc1`, the viability was 87.7%.
`CC1=C(C/C=C(\C)CCC[C@H](C)CCC[C@H](C)CCCC(C)C)C(=O)c2ccccc2C1=O` gave a viability of 81.9%.
